Results gathered from unrelated publications.
Each line is one published result; not all experiments were run side by side. In brackets after ≈: the same amount, converted by molar mass.
Sequence of UniProt P08913 (whole entry, looked up): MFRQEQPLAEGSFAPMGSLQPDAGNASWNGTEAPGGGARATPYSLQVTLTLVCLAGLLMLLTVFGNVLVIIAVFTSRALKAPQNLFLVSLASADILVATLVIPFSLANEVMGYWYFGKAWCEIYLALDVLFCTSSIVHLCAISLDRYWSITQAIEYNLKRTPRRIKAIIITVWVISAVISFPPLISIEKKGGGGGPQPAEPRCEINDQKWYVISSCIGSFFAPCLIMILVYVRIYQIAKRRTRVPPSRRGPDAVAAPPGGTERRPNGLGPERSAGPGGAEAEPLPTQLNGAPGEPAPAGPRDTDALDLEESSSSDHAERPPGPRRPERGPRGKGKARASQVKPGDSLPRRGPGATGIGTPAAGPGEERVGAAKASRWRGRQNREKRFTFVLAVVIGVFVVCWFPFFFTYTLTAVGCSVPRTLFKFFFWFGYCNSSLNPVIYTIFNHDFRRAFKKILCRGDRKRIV

SMILES = C[C@@H](O)[C@@H](CO)NC(=O)[C@@H](CCCNC(=N)N)NC(=O)[C@@H]1CCCN1C(=O)[C@@H]1CSSC[C@H](NC(=O)[C@H](Cc2ccccc2)NC(=O)CN2CCN(CC(=O)O)CCN(CC(=O)O)CCN(CC(=O)O)CC2)C(=O)N[C@@H](Cc2ccc(O)cc2)C(=O)N[C@@H](Cc2ccccc2)C(=O)N[C@@H](CCC(N)=O)C(=O)N[C@@H](CC(N)=O)C(=O)N1 [gallium-68 labelled]; test system = healthy Wistar rat, pancreas; setting = intravenous, 8 MBq, 120 min, individual animals; quantity = tissue uptake; value = 0.02 %ID/g
SMILES = COc1c(CCC[P+](c2ccccc2)(c2ccccc2)c2ccccc2)cc2c(c1OC)OCO2.[I-]; tested on = OVCAR-3; test = SRB; quantity = GI50; value = -6.2 log M
SMILES = CO[C@H]1C[C@@H]2CC[C@@H](C)[C@@](O)(O2)C(=O)C(=O)N2CCCC[C@H]2C(=O)O[C@H]([C@H](C)C[C@@H]2CC[C@@H](OC(=O)NCCOCCOCCOCCOCCOCCOCCOCCOCCC(=O)N3CCc4cc(Cn5nc(-c6ccc7oc(N)nc7c6)c6c(N)ncnc65)ccc4C3)[C@H](OC)C2)C[C@@H](O)[C@H](C)/C=C(\C)[C@@H](O)[C@@H](OC)C(=O)[C@H](C)C[C@H](C)/C=C/C=C/C=C/1C; test system = patients with advanced solid tumours; setting = intravenous, 6 mg weekly, grade 3 or higher; quantity = decreased appetite incidence; value = 0%
SMILES = CCCCC1(CCCC)CN(c2ccccc2)c2cc(SC)c(OCC(=O)N[C@@H](C(=O)NCC(=O)O)c3ccccc3)cc2S(=O)(=O)C1; test = refers to: LDL cholesterol; test system = human, serum; setting = 10 mg once daily, day 11; quantity = serum LDL-C; value = 89.8 mg/dL
SMILES = C[C@H](C(=O)N[C@H]1COc2ccccc2[C@@H]1S(C)(=O)=O)c1ccc(F)cc1; tested on = 5-HT2 receptor, rat; test = binding; setting = 10 µM, Eurofins selectivity panel; quantity = inhibition; value = 8%
SMILES = COc1cc2c(Oc3ccc4[nH]c(C)cc4c3F)ccnc2cc1OCC1(N)CC1; test system = paediatric recurrent refractory sarcoma; setting = 10 mg; quantity = grade 3 Cholesterol elevation; value = 0%
SMILES = Nc1ncnc2c1ncn2[C@@H]1O[C@@H]2COP(=O)(O)O[C@H]3[C@@H](O)[C@H](n4cnc5c(=O)[nH]cnc54)O[C@@H]3COP(=O)(O)O[C@H]2[C@H]1O; tested on = Zika virus; test = downregulated Reactome pathway, RNA sequencing, refers to: Cell junction organization (R-HSA-446728); test system = HFF-1; scale = reference: ZIKV-infected untreated; quantity = fold enrichment; value = 7.05
SMILES = CN1CCN(S(=O)(=O)c2cc([N+](=O)[O-])ccc2N(CCOS(C)(=O)=O)CCOS(C)(=O)=O)CC1; test system = NSG mice, sample BD PDX; setting = intraperitoneal, 25 mg/kg weekly x3; quantity = event-free survival; value = 4.7 days
SMILES = COc1cc(CCC[P+](c2ccccc2)(c2ccccc2)c2ccccc2)c(OC)c2c1OCO2.[I-]; tested on = OVCAR-3; test = SRB; quantity = TGI; value = -4.97 log M
SMILES = C[C@H]1CN(c2n[nH]c3nc(N[C@H]4CC[C@H](NS(=O)(=O)CCC(F)(F)F)CC4)ncc23)CCO1; tested on = cAMP-dependent protein kinase catalytic subunit alpha (PRKACA, Homo sapiens, UniProt P17612); test = inhibitor, Kinobeads competition profiling; setting = 0.16 µM; scale = reference: vehicle; quantity = relative abundance; value = 0.76
SMILES = O=C(NNc1ccc(Cl)cc1)c1nnc(C23CC4CC(CC(C4)C2)C3)o1; tested on = Fusarium graminearum; test = fungal growth, inhibitor; setting = 50 µg/mL; quantity = inhibition; value = 100%
SMILES = CC[C@H](C)[C@@H]1NC(=O)[C@@H]2CCCN2C(=O)[C@H](CC(C)C)NC(=O)[C@H](CC(C)C)NC(=O)CNC(=O)[C@@H](NC(=O)[C@@H](NC(=O)[C@H](CC(=O)O)NC(=O)CNC(=O)[C@@H](NC(=O)[C@H](C)NC(=O)CNC(=O)[C@H](CCCCN)NC(=O)[C@H](CC(C)C)NC(=O)[C@H](CC(C)C)NC(=O)[C@H](CCCCN)NC(=O)CNC(=O)[C@@H](NC(=O)[C@@H](N)CC(C)C)C(C)C)C(C)C)C(C)C)CSSC[C@@H](C(=O)O)NC1=O; test = RNA-seq, refers to: Rac2; test system = mouse, traumatic brain injury model, frontal cortex and hippocampus; setting = dose not given; scale = reference: TBI alone; quantity = log2 fold change; value = -2.42
SMILES = CC[C@H](C)[C@H](NC(=O)[C@H](C)NC(=O)[C@H](CCCCN)NC(=O)[C@H](CC(C)C)NC(=O)[C@H](C)NC(=O)[C@@H](NC(=O)[C@H](Cc1c[nH]cn1)NC(=O)[C@H](CC(C)C)NC(=O)[C@@H](NC(=O)[C@@H](NC(=O)[C@H](CCCCN)NC(=O)[C@H](C)NC(=O)[C@H](C)NC(=O)[C@H](CO)NC(=O)[C@H](CCCCN)NC(=O)[C@H](Cc1ccccc1)NC(=O)[C@@H](NC(=O)[C@H](CCCCN)NC(=O)[C@H](CC(C)C)NC(=O)[C@H](Cc1ccccc1)NC(=O)[C@H](CO)NC(=O)[C@H](CCCCN)NC(=O)[C@H](Cc1c[nH]c2ccccc12)NC(=O)[C@H](CCCCN)NC(C)=O)[C@@H](C)O)[C@@H](C)O)C(C)C)[C@@H](C)O)C(=O)N[C@@H](CO)C(=O)N[C@@H](CO)C(N)=O; tested on = Enterobacter cloacae; setting = range over strains; quantity = MBC; value = 4 µg/mL (≈ 1.36 µM)
SMILES = COc1cc(Nc2ncc(F)c(Nc3ccc4c(n3)NC(=O)C(C)(C)O4)n2)cc(OC)c1OC; tested on = Alpha-2A adrenergic receptor (ADRA2A, Homo sapiens, UniProt P08913); quantity = IC50; value = > 10 µM
SMILES = CS(=O)(=O)CCCn1c(Cn2c(=O)n(CC(F)(F)F)c3ccncc32)cc2cc(Cl)ccc21; tested on = respiratory syncytial virus; test = RT-qPCR; test system = hospitalized infants 1-24 months, nasal swab; setting = oral, 2, 1.5 or 1 mg/kg daily, day 3, low dose by age cohort; scale = reference: baseline; quantity = LS mean viral load change; value = -2.56 log10 copies/mL

Excerpt of the above:
SMILES = CC[C@H](C)[C@@H]1NC(=O)[C@@H]2CCCN2C(=O)[C@H](CC(C)C)NC(=O)[C@H](CC(C)C)NC(=O)CNC(=O)[C@@H](NC(=O)[C@@H](NC(=O)[C@H](CC(=O)O)NC(=O)CNC(=O)[C@@H](NC(=O)[C@H](C)NC(=O)CNC(=O)[C@H](CCCCN)NC(=O)[C@H](CC(C)C)NC(=O)[C@H](CC(C)C)NC(=O)[C@H](CCCCN)NC(=O)CNC(=O)[C@@H](NC(=O)[C@@H](N)CC(C)C)C(C)C)C(C)C)C(C)C)CSSC[C@@H](C(=O)O)NC1=O; test = RNA-seq, refers to: Rac2; test system = mouse, traumatic brain injury model, frontal cortex and hippocampus; setting = dose not given; scale = reference: TBI alone; quantity = log2 fold change; value = -2.42
